Results collected from several papers.
Every numbered part comes from another study and shows a few of its results, in no order.

Block 1
Target: Fragile X messenger ribonucleoprotein 1, C-terminal low-complexity region (Fmr1, Mus musculus, UniProt P35922)
Technique: RNA Bind-n-Seq
Form: RNA
Sample: in vitro
Concentration: 200 nM
Notes: whole 134-nt RNA, ends assumed
With: 150 mM LiCl
Relative to: input library
Direction: higher = stronger binding
Library: 7-deaza-guanosine replaces G
| Oligonucleotide | log2 enrichment |
| --- | --- |
| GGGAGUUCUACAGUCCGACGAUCUCAAGUCCUGUGCUACACAUCGUAUGUACCGAAUCGGGUGGGAAAAAGGGAGGGAAAGUAUUAUGUUACGCCGUUCGGAUCUGCACUUCCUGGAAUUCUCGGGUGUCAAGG | -0.467 |
| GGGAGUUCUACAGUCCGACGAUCAGUCCUGUGCUACACAUCGUAUGUACCGAAUCGGGGAAAAGGGGAAAAGGAAAAGGGAAAGUAUUAUGUUACGCCGUUCGGAUCUGCACUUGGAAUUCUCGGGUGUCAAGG | -0.724 |
| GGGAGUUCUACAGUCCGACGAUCCAAGUCCUGUGCUACACAUCGUAUGUACCGAAUCGGUUUUUGGUUUGGAAAAAGGAAAGUAUUAUGUUACGCCGUUCGGAUCUGCACUUCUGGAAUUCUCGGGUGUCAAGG | -1.67 |
| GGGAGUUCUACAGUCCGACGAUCAGUCCUGUGCUACACAUCGUAUGUACCGAAUCGGGGAAAGGGGAGGGGAAAAAGGGGAAAGUAUUAUGUUACGCCGUUCGGAUCUGCACUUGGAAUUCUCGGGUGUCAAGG | 0.43 |
| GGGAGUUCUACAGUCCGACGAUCUAACUUUAGAGGAGGAUCUGAUGGAUAUGGCAGUGGACGUGGAUUUGGGGAUGACUAUAAUGGGUAUGGAGGAGGACCUGGAGGUGGCAAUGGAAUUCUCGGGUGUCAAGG | 0.287 |

Block 2
Target: Histone acetyltransferase KAT6A, winged helix 1, GST fusion (KAT6A, Homo sapiens, UniProt Q92794, residues 1-85)
Technique: protein binding microarray
Form: double-stranded DNA, one strand shown
Sample: in vitro
Concentration: not given
Notes: 8-mer, flanks averaged, mean of 2 arrays, mostly near background
Relative to: not given
Direction: higher = stronger binding
Residues (chain): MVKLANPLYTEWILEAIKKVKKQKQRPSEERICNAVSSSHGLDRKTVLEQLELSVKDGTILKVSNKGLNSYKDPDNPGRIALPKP
| Oligonucleotide | E-score |
| --- | --- |
| ATCCAACG | -0.0263 |
| CGGGATAA | 0.183 |
| GAACTACC | -0.145 |
| ATATCCTG | -0.269 |
| ACGGGAGC | 0.229 |
| GAAGAACC | -0.0677 |
| AAAGACTT | -0.271 |
| GTACGAAC | 0.123 |

Block 3
Cell line: HEK-293T/ACE2
Concentration: 10 µM
Time: 16 h
Relative to: vehicle
| SMILES | viability [%] |
| --- | --- |
| CN(C)C(=O)Oc1ccc[n+](C)c1 | 97.6 |
| OC(CCCN1CCCCC1)(c1ccccc1)c1ccccc1 | 102 |
| COc1ccccc1OCC(O)CO (centres unmarked) | 96.5 |
| CN(C)CCC=C1c2ccccc2CCc2ccccc21 | 101 |

Block 4
Target: Interferon regulatory factor 3, full length, phosphomimetic (IRF3, Homo sapiens, UniProt Q14653, residues 1-427, S386D/S396D/S398D/S402D/T404D/S405D)
Technique: protein-binding microarray
Form: double-stranded DNA, one strand shown
Sample: in vitro
Concentration: 2540 nM top
Notes: 60-bp whole probe
With: salmon DNA 0.4 mg/ml
Relative to: random background probes
Direction: higher = stronger binding
Constant ends, left off below: GCCTAGCAC … GTGCTAGGTCTTGATTCGCTTGACGCTGCTG
Construct (chain): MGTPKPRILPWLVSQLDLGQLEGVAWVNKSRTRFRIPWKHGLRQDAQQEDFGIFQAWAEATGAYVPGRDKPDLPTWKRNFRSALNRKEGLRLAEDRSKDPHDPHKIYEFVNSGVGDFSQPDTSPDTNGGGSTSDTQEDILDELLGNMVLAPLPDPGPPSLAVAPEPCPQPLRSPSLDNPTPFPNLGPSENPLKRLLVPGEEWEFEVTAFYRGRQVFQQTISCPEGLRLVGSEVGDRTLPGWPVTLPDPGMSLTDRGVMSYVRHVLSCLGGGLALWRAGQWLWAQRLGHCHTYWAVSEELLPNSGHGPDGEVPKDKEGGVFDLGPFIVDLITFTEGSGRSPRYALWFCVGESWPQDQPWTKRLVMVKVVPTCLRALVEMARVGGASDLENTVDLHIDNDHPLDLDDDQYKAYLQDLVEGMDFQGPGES
| Oligonucleotide | fitted relative affinity |
| --- | --- |
| TCATGTCTGGGTCTTGGACT | -0.509 z-score |
| TTCTATCTCTGTTTTTGCTT | 1.03 z-score |
| TCACCACCCGCTCTGGCACT | -0.346 z-score |
| GACGATCTCCTACTGCTGAC | 0.808 z-score |
| TGCACTCTCTACATGTGTTT | 0.185 z-score |
| ATATATATATATACAGATAT | 0.876 z-score |
| TTAGATTTCAGTCTCGATGA | 2.27 z-score |
| GACGGGTTCCTACTGCTGAC | 0.748 z-score |

Block 5
Target: Replicase polyprotein 1ab, polymerase (rep, Severe acute respiratory syndrome coronavirus 2, UniProt P0DTD1)
Effect on: enzyme activity
Mode: inhibitor
Concentration: 20 µM
| SMILES | inhibition |
| --- | --- |
| C[C@@H]1COCCN1c1cc(=O)n2c(n1)N(Cc1cncc(Cl)c1)[C@H](C(F)(F)F)CC2 | -6.42% |
| COc1cc2c(cc1OC)CN(C(=O)[C@@H](NCc1ccncc1)C(C)(C)C)CC2 | 0.39% |
| O=C(c1cc(S(=O)(=O)Nc2ccccc2F)c(F)cc1Cl)N1CCN2CCC[C@@H]2C1 | -2.5% |
| c1ccc(-c2ncc(CN3CCN(c4ncccn4)CC3)[nH]2)cc1 | -15.6% |
| CN1Cc2c(N)cccc2C(c2ccccc2)C1 (centres unmarked) | -2.94% |
| NC(=O)c1cc(N2CC2)c([N+](=O)[O-])cc1[N+](=O)[O-] | 0.65% |
| CC(=O)N[C@H](Cc1ccc2ccccc2c1)C(=O)N[C@H](Cc1ccc(Cl)cc1)C(=O)N[C@H](Cc1cccnc1)C(=O)N[C@@H](CO)C(=O)N[C@@H](Cc1ccc(O)cc1)C(=O)N[C@H](CCCNC(N)=O)C(=O)N[C@@H](CC(C)C)C(=O)N[C@@H](CCCNC(=N)N)C(=O)N1CCC[C@H]1C(=O)N[C@H](C)C(N)=O | 16% |
| CC[C@@H]([C@H](C)O)n1ncn(-c2ccc(N3CCN(c4ccc(OC[C@@H]5CO[C@@](Cn6cncn6)(c6ccc(F)cc6F)C5)cc4)CC3)cc2)c1=O | -2.16% |
| CC(=O)N(c1onc(C)c1C)S(=O)(=O)c1ccc(N)cc1 | -4.62% |
| COc1cc2c(cc1Cc1cccc(Cl)c1F)c(=O)c(C(=O)O)cn2[C@H](CO)C(C)C | 1.04% |
| CC(C)OC(=O)N[C@H]1Cc2c(n(Cc3ccccn3)c3ccc(C#N)cc23)C1 | 3.24% |
| CCOC(=O)c1c2c3c(cccc3[nH]c1=O)C(=O)c1ccccc1-2 | -0.11% |
| COc1cc(C[C@@H](CO[C@@H]2O[C@H](CO)[C@@H](O)[C@H](O)[C@H]2O)[C@H](CO[C@@H]2O[C@H](CO)[C@@H](O)[C@H](O)[C@H]2O)Cc2ccc(O)c(OC)c2)ccc1O | -3.81% |
| CC[C@@H](Nc1c(Nc2cccc(C(=O)N(C)C)c2O)c(=O)c1=O)c1ccc(C)o1 | 2.42% |
| Oc1c(CN2CCCC2)cc(COCc2ccccc2)c2cccnc12 | -0.3% |
| O=c1ccc2ccc(OCCCCN3CCN(c4cccc5sccc45)CC3)cc2[nH]1 | -2.92% |
| CC(C)C[C@@H](NC(=O)[C@H](Cc1ccccc1)NC(=O)CNC(=O)[C@@H](C)NC(=O)[C@@H](N)Cc1ccc(O)cc1)C(=O)O | -1.27% |
| O=C1CC[C@@](c2ccccc2)(C2CCN(Cc3ccc(I)cc3)CC2)C(=O)N1 | 0.25% |
| O=[N+]([O-])c1cn2c(n1)OC[C@@H](OCc1ccc(OC(F)(F)F)cc1)C2 | 1.84% |
| CCCCC1C(=O)N(c2ccccc2)N(c2ccc(O)cc2)C1=O (centres unmarked) | 12.6% |

Mixed results
| Compound | tested on | effect on | mode | cell line | concentration | quantity | value |
| --- | --- | --- | --- | --- | --- | --- | --- |
| CC(C)C[C@@H](C=O)NC(=O)[C@H](CC(C)C)NC(=O)[C@H](CC(C)C)NC(=O)OCc1ccccc1 | SARS-CoV-2 | cytopathic effect |  | Vero E6 |  | IC50 | 360 nM |
| CC(C)(C)OC(=O)NCCc1nnc(S(=O)(=O)Cc2ccc(Cl)cc2Cl)o1 | Replicase polyprotein 1ab, main protease (rep, Severe acute respiratory syndrome coronavirus 2, UniProt P0DTD1) | enzyme activity | inhibitor |  | 20 µM | inhibition | 94.9% |

A few entries again (block 5):
| SMILES | inhibition |
| --- | --- |
| Oc1c(CN2CCCC2)cc(COCc2ccccc2)c2cccnc12 | -0.3% |
| O=c1ccc2ccc(OCCCCN3CCN(c4cccc5sccc45)CC3)cc2[nH]1 | -2.92% |
| CC(C)C[C@@H](NC(=O)[C@H](Cc1ccccc1)NC(=O)CNC(=O)[C@@H](C)NC(=O)[C@@H](N)Cc1ccc(O)cc1)C(=O)O | -1.27% |
| O=C1CC[C@@](c2ccccc2)(C2CCN(Cc3ccc(I)cc3)CC2)C(=O)N1 | 0.25% |
